Measurements collected from several papers.
Lines come from different studies, so protocols differ.
Sequence of UniProt P55060 (whole entry, looked up): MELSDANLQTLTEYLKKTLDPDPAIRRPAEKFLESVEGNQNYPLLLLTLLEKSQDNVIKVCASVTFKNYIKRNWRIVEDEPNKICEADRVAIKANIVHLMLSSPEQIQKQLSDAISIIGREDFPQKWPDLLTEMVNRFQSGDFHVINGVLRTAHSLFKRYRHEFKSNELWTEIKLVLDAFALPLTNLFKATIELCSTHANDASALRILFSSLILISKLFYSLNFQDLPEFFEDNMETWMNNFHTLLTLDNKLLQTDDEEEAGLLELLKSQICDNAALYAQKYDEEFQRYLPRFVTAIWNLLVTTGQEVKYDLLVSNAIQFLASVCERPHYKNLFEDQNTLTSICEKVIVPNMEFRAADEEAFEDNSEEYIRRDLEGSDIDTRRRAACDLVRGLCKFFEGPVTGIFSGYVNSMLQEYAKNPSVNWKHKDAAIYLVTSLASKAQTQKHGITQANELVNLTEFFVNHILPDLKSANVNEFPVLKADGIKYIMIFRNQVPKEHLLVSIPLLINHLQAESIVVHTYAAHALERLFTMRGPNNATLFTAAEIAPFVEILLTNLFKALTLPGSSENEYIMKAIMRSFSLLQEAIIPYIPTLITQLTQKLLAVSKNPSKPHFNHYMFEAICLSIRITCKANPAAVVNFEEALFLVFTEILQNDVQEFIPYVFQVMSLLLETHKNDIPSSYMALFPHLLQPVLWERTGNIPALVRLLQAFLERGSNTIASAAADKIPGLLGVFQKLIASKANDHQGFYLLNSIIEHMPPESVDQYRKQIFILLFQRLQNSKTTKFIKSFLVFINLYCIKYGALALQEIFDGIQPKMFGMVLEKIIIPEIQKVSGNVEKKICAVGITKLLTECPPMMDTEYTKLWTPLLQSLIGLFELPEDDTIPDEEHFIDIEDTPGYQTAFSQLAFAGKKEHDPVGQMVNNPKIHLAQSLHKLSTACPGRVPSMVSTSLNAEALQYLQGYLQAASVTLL

| Compound | target or system | assay | test system | conditions | scale | quantity | value |
| --- | --- | --- | --- | --- | --- | --- | --- |
| N=C(N)NCCC[C@H](NC(=O)[C@H](Cc1c[nH]c2ccccc12)NC(=O)[C@H](CCCNC(=N)N)NC(=O)[C@H](Cc1c[nH]c2ccccc12)NC(=O)[C@H](Cc1c[nH]c2ccccc12)NC(=O)[C@H](Cc1c[nH]c2ccccc12)NC(=O)[C@H](CCCNC(=N)N)NC(=O)[C@H](Cc1c[nH]c2ccccc12)NC(=O)[C@H](CCCNC(=N)N)NC(=O)CN)C(N)=O | Candida albicans | broth microdilution | CGMCC 2.209, RPMI 1640-MOPS | 48 h, 30 °C |  | MIC | 4 µM |
| N=C(N)NCCC[C@H](NC(=O)CCCCCNC(=O)[C@H](CCCNC(=N)N)NC(=O)[C@H](CCCNC(=N)N)NC(=O)CCCCCNC(=O)[C@H](CCCNC(=N)N)NC(=O)[C@H](CCCNC(=N)N)NC(=O)CCCCCNC(=O)[C@H](CCCNC(=N)N)NC(=O)[C@H](CCCNC(=N)N)NC(=O)CCCCCNC(=O)[C@@H](N)CCCNC(=N)N)C(=O)NCCCCCC(=O)NCCC(=O)O | Escherichia coli |  | ATCC 25922 |  |  | MIC | 96 µM |
| CC1(C)SC2C(NC(=O)C(NC(=O)C3=C(O)C(Cc4ccccc4)NC3=O)c3ccccc3)C(=O)N2C1C(=O)O (stereo not shown) | Escherichia coli |  | ATCC 35218, low-level TEM-1 | without clavulanic acid |  | MIC | > 200 µg/mL |
| N=C(N)NCCC[C@H](NC(=O)CN)C(=O)N[C@@H](Cc1c[nH]c2ccccc12)C(=O)N[C@@H](CCCNC(=N)N)C(=O)N[C@@H](Cc1c[nH]c2ccccc12)C(=O)N[C@@H](Cc1c[nH]c2ccccc12)C(=O)N[C@@H](Cc1c[nH]c2ccccc12)C(=O)N[C@@H](CCCNC(=N)N)C(=O)N[C@@H](Cc1c[nH]c2ccccc12)C(=O)N[C@@H](CCCNC(=N)N)C(=O)N[C@@H](Cc1c[nH]c2ccccc12)C(N)=O | Candida tropicalis | broth microdilution | CGMCC 2.192, RPMI 1640-MOPS | 48 h, 30 °C |  | MIC | 4 µM |
| CC1(C)SC2C(NC(=O)C(NC(=O)C3=C(O)C4(CC4)NC3=O)c3ccccc3)C(=O)N2C1C(=O)O (stereo not shown) | Escherichia coli | broth microdilution | JW0790-2 fiu deletion mutant | ferric iron uptake gene |  | MIC | 25 µg/mL |
| CS(=O)(=O)Nc1ncn(-c2cc(F)c(COc3ccc(OS(=O)(=O)F)cc3)c(F)c2)n1 | Mycobacterium marinum |  |  |  |  | MIC | 3.12 µM |
| C[C@@H](O)[C@H]1C(=O)N2C(C(=O)O)=C(SCCN=CN)C[C@H]12 | Klebsiella pneumoniae |  | K3 | after induction, with: ceftazidime-avibactam 4/1 |  | MIC | 64 µg/mL |
| N=C(N)NCCC[C@H](NC(=O)[C@H](Cc1c[nH]c2ccccc12)NC(=O)[C@H](CCCNC(=N)N)NC(=O)[C@H](Cc1c[nH]c2ccccc12)NC(=O)[C@H](Cc1c[nH]c2ccccc12)NC(=O)[C@H](Cc1c[nH]c2ccccc12)NC(=O)[C@H](CCCNC(=N)N)NC(=O)[C@H](Cc1c[nH]c2ccccc12)NC(=O)[C@@H](N)CCCNC(=N)N)C(=O)N[C@@H](Cc1ccccc1)C(N)=O | Candida albicans | broth microdilution | 56214, RPMI 1640-MOPS | 48 h, 30 °C |  | MIC | 8 µM |
| CC(C)(C)OCC1NC(=O)C(C(=O)NC(C(=O)NC2C(=O)N3C2SC(C)(C)C3C(=O)O)c2ccccc2)=C1O (stereo not shown) | Escherichia coli | broth microdilution | Keio mutant JW0146-2 | 18 h, ferric hydroxamate uptake gene |  | MIC | 50 µg/mL |
| CC(C)/N=c1\cc2n(-c3ccc(Cl)cc3)c3ccccc3nc-2cc1Nc1ccc(Cl)cc1 | Neisseria gonorrhoeae | bacterial growth | 1130991, multidrug-resistant | 24 h |  | MIC | 0.94 µM |
| C[C@H]1CN(c2n[nH]c3nc(N[C@H]4CC[C@H](NS(=O)(=O)CCC(F)(F)F)CC4)ncc23)CCO1 | Exportin-2 (Homo sapiens, UniProt P55060) | competitor, Kinobeads competition | human cell extract | 20 µM | relative to: vehicle | relative abundance | 1.23 |
| O=C(O)CO/N=c1\cc2n(-c3ccc(Cl)cc3)c3ccccc3nc-2cc1Nc1ccc(Cl)cc1 | Neisseria gonorrhoeae | bacterial growth | 1130991, multidrug-resistant | 24 h |  | MIC | 0.94 µM |
| CC(C)C[C@@H](NC(=O)[C@H](C)NC(=O)CNC(=O)[C@@H](NC=O)C(C)C)C(=O)N[C@@H](C)C(=O)N[C@@H](C(=O)N[C@H](C(=O)N[C@@H](C(=O)N[C@@H](Cc1c[nH]c2ccccc12)C(=O)N[C@H](CC(C)C)C(=O)N[C@@H](Cc1cc2ccccc2[nH]1)C(=O)N[C@H](CC(C)C)C(=O)N[C@@H](Cc1c[nH]c2ccccc12)C(=O)N[C@H](CC(C)C)C(=O)N[C@@H](Cc1c[nH]c2ccccc12)C(=O)NCCO)C(C)C)C(C)C)C(C)C | Streptococcus agalactiae | broth microdilution | JCM 5671 |  |  | MIC | 17 µM |

Excerpt of the above:
| Compound | target or system | assay | test system | conditions | scale | quantity | value |
| --- | --- | --- | --- | --- | --- | --- | --- |
| CC1(C)SC2C(NC(=O)C(NC(=O)C3=C(O)C4(CC4)NC3=O)c3ccccc3)C(=O)N2C1C(=O)O (stereo not shown) | Escherichia coli | broth microdilution | JW0790-2 fiu deletion mutant | ferric iron uptake gene |  | MIC | 25 µg/mL |
| N=C(N)NCCC[C@H](NC(=O)[C@H](Cc1c[nH]c2ccccc12)NC(=O)[C@H](CCCNC(=N)N)NC(=O)[C@H](Cc1c[nH]c2ccccc12)NC(=O)[C@H](Cc1c[nH]c2ccccc12)NC(=O)[C@H](Cc1c[nH]c2ccccc12)NC(=O)[C@H](CCCNC(=N)N)NC(=O)[C@H](Cc1c[nH]c2ccccc12)NC(=O)[C@H](CCCNC(=N)N)NC(=O)CN)C(N)=O | Candida albicans | broth microdilution | CGMCC 2.209, RPMI 1640-MOPS | 48 h, 30 °C |  | MIC | 4 µM |
